Experimental data of several laboratories.
A part holds a random share of what one study measured.
Sequence of UniProt Q99683 (whole entry, looked up): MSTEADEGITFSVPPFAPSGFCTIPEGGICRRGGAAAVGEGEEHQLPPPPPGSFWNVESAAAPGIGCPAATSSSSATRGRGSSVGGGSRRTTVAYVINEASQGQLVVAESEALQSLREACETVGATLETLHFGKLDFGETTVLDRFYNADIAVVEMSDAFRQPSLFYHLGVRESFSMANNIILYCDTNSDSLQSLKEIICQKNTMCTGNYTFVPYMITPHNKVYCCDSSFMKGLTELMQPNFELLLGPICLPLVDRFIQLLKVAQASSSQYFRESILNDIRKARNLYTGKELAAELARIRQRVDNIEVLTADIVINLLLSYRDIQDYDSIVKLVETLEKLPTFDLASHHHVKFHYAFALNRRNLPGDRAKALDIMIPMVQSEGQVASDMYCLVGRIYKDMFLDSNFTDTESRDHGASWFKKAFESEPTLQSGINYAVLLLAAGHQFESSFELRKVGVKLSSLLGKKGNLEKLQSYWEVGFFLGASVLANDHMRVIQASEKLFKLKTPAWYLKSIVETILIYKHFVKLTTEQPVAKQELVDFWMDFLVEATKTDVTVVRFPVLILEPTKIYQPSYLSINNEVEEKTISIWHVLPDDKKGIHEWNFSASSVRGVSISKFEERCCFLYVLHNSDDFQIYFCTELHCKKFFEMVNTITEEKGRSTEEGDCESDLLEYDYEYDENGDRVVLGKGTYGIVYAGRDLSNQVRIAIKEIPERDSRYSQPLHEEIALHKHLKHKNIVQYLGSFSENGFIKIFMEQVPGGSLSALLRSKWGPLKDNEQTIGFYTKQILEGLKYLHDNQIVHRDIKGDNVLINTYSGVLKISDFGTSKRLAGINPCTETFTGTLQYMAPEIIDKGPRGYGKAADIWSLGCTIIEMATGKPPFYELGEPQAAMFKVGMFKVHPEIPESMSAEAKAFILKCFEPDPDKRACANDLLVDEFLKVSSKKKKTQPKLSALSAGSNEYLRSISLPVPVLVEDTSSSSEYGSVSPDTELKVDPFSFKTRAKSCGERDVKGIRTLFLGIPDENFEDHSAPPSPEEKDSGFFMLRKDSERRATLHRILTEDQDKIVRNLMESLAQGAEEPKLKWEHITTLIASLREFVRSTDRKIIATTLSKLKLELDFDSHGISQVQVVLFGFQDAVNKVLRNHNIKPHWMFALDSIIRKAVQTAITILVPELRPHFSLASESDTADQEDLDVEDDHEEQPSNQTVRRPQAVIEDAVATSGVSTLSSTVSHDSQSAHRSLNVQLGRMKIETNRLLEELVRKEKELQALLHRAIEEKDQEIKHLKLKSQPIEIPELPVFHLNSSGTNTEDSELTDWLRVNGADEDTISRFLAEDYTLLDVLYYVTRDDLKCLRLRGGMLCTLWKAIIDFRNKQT
Sequence of UniProt Q9UL54 (whole entry, looked up): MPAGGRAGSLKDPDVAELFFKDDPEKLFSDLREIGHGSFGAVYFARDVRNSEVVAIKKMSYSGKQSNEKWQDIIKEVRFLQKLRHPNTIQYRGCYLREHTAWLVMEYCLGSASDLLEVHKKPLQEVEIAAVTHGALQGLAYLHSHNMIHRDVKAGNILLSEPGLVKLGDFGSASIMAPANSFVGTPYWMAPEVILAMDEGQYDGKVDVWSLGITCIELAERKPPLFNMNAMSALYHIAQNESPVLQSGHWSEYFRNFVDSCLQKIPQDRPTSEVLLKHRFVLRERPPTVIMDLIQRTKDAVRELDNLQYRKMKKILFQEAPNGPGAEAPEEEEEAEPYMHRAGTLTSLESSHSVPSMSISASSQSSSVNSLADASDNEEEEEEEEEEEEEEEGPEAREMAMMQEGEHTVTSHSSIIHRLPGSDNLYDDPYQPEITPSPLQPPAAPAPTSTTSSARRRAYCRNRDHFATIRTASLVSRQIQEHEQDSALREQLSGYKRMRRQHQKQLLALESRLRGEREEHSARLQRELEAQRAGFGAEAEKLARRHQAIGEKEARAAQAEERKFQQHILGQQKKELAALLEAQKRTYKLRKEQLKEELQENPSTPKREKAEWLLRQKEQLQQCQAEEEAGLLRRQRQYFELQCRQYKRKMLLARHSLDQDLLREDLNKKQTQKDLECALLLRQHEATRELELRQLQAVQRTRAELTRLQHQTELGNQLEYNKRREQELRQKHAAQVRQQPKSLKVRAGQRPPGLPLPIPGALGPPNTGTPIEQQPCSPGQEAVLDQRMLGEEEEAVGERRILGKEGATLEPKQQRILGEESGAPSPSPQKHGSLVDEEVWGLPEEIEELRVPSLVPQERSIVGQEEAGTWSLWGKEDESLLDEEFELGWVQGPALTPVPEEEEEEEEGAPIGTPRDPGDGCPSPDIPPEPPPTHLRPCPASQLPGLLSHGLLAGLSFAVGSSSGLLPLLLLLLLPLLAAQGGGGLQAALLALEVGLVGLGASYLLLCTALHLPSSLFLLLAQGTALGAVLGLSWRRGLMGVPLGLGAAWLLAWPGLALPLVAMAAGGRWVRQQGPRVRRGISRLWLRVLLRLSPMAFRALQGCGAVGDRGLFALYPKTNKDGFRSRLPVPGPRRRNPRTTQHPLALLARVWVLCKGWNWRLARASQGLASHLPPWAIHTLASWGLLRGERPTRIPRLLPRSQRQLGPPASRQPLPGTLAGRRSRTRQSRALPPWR
Sequence of UniProt Q9Y2H1 (whole entry, looked up): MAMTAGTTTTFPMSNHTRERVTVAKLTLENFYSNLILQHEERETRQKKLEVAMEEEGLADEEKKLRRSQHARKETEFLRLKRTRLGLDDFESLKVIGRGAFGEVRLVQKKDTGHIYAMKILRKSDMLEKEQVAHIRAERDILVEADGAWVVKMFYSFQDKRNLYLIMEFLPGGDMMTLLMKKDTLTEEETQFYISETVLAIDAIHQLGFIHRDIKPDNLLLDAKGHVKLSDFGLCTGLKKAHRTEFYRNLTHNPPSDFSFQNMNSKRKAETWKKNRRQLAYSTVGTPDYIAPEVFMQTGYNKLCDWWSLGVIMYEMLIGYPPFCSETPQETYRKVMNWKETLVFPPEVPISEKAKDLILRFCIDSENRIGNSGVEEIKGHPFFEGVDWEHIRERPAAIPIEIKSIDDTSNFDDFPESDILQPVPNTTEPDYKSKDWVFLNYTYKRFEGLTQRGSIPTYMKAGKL
Sequence of UniProt Q56UN5 (whole entry, looked up): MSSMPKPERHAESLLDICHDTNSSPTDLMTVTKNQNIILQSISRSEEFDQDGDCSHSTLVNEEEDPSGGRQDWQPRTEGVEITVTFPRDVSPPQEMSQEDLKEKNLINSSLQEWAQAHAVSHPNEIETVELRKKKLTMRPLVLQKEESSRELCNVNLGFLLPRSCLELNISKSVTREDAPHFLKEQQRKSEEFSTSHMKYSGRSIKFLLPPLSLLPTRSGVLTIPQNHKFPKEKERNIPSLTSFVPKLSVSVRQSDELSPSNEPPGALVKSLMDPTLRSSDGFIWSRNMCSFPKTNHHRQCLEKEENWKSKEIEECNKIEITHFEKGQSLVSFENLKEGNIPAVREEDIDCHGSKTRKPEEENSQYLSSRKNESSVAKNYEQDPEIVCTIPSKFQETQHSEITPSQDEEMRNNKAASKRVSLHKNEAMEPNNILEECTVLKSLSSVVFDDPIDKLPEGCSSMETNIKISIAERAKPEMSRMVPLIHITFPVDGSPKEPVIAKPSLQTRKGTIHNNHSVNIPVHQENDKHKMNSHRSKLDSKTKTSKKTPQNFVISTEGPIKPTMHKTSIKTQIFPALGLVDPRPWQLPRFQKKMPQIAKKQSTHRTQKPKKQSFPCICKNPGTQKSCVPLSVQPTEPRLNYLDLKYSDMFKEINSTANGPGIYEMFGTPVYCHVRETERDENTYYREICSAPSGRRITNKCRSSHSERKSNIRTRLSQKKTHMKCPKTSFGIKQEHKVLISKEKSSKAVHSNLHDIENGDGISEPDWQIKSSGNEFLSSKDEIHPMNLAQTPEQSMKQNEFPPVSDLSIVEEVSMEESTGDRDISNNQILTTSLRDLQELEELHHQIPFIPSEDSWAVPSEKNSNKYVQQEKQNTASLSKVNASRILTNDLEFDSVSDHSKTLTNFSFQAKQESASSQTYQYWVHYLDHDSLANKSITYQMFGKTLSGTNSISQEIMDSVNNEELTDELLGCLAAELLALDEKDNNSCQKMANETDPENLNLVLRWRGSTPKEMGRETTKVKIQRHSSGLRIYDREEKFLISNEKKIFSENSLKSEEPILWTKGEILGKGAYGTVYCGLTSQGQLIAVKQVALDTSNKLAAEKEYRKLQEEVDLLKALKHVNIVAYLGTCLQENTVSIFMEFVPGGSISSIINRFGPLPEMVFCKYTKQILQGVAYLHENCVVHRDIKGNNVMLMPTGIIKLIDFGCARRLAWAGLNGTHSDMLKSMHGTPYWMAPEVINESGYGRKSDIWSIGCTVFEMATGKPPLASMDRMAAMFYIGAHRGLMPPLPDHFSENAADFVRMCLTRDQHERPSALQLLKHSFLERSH
Sequence of UniProt Q9HC98 (whole entry, looked up): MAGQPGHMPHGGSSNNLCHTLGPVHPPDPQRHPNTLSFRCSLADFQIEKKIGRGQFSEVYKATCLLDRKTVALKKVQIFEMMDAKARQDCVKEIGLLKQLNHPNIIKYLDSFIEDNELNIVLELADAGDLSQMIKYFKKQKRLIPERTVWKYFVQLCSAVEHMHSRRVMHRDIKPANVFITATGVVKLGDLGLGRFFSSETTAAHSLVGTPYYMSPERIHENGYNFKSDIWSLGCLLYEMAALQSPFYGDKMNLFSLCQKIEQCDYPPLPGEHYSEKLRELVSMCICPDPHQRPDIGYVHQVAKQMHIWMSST

Sample 1 — host: mouse; medium: microsomes or S9; concentration: 2 µM; time: 0.5 h; measurement: remaining compound
Cc1ccc(C[C@H](NCc2ccccc2)c2cccs2)cc1: 0.013%
CC(NNc1ccccc1)=C1C(=O)NC(=O)NC1=O: 61.5%
O=C(CCc1ccsc1)Nc1ccc2c(c1)CNCC2: 71.6%

Sample 2 — Structure (SMILES): COc1ccc2c(c1)/C(=C/c1cnc[nH]1)C(=O)N2; observed: enzyme activity; action: inhibitor; concentration: 0.5 µM; measurement: remaining activity
Wee1-like protein kinase (WEE1, Homo sapiens, UniProt P30291); reference: control: 94.2%
Dual specificity tyrosine-phosphorylation-regulated kinase 1B (DYRK1B, Homo sapiens, UniProt Q9Y463); radiometric: 53.1%
Tyrosine-protein kinase FRK (FRK, Homo sapiens, UniProt P42685); reference: control: 96.4%
Serine/threonine-protein kinase TAO2 (TAOK2, Homo sapiens, UniProt Q9UL54); reference: control: 81.8%
Mitogen-activated protein kinase kinase kinase 5 (MAP3K5, Homo sapiens, UniProt Q99683); reference: control: 103%
Serine/threonine-protein kinase Nek6 (NEK6, Homo sapiens, UniProt Q9HC98); reference: control: 98.2%

Sample 3 — cell line: L929; observed: necroptosis protection; technique: CCK-8; concentration: 0.156 µM; with: TNF-α plus zVAD; measurement: viability
CC(C)S(=O)(=O)c1ccc2nccc(Nc3ccc4scnc4c3)c2c1: 14.1%
CC[C@@H](C)c1nc2cc(Nc3ccnc4ccc(S(=O)(=O)C(C)C)cc34)ccc2s1: 19.5%
CC(C)S(=O)(=O)c1cc2c(Nc3ccc4sc(C5CCCC5)nc4c3)ccnc2cc1OCCO: 53.1%
CC(C)S(=O)(=O)c1ccc2nccc(Nc3ccc4sc(C5CCCC5)nc4c3)c2c1: 31.6%

Sample 4 — observed: cell-free assay; technique: competition with immobilised ligand; concentration: 1 µM; measurement: remaining binding
SMILES: Cn1cncc1[C@](O)(COc1ccc(C#N)cc1-c1ccc(OC(F)(F)F)cc1)c1ccc(C#N)cc1
Tyrosine-protein kinase ABL1, phosphorylated (ABL1, Homo sapiens, UniProt P00519, Y253F): 94%
Mitogen-activated protein kinase kinase kinase 19 (MAP3K19, Homo sapiens, UniProt Q56UN5): 63%
Serine/threonine-protein kinase PAK 4 (PAK4, Homo sapiens, UniProt O96013): 100%
Receptor-type tyrosine-protein kinase FLT3 (FLT3, Homo sapiens, UniProt P36888, D835V): 100%
Epidermal growth factor receptor (EGFR, Homo sapiens, UniProt P00533, del746-750): 78%
Serine/threonine-protein kinase 38-like (STK38L, Homo sapiens, UniProt Q9Y2H1): 65%

A few entries again (sample 2):
Serine/threonine-protein kinase TAO2 (TAOK2, Homo sapiens, UniProt Q9UL54); reference: control: 81.8%
Mitogen-activated protein kinase kinase kinase 5 (MAP3K5, Homo sapiens, UniProt Q99683); reference: control: 103%
